Measured values gathered from unrelated publications.
Each line is one published result; not all experiments were run side by side. ± gives the spread as reported.
WEE1/CRBN: WEE1/CRBN (Homo sapiens, UniProt P30291+Q96SW2)
RPA1 N-terminal domain: Replication protein A 70 kDa DNA-binding subunit, N-terminal domain (RPA1, Homo sapiens, UniProt P27694)

Amino acid sequences for entries named in this document (tags omitted).
UniProt P30291, whole entry: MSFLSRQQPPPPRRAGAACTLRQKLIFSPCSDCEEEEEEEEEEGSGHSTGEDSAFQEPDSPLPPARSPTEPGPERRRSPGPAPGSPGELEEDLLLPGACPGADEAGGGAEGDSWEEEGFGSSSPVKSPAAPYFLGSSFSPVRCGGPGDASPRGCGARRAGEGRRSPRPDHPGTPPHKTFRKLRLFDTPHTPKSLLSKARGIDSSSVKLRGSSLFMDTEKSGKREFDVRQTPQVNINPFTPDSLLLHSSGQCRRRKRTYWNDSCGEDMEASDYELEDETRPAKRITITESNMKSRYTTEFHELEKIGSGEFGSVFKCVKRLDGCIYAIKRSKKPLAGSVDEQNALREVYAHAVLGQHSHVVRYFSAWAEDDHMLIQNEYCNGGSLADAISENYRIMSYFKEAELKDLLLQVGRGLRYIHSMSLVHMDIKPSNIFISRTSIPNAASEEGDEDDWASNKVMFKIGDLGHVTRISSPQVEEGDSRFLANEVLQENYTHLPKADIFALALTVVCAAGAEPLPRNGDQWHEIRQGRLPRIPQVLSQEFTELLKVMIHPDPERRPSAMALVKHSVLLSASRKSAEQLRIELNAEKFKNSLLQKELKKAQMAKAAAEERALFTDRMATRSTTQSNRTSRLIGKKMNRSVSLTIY
UniProt Q96SW2, whole entry: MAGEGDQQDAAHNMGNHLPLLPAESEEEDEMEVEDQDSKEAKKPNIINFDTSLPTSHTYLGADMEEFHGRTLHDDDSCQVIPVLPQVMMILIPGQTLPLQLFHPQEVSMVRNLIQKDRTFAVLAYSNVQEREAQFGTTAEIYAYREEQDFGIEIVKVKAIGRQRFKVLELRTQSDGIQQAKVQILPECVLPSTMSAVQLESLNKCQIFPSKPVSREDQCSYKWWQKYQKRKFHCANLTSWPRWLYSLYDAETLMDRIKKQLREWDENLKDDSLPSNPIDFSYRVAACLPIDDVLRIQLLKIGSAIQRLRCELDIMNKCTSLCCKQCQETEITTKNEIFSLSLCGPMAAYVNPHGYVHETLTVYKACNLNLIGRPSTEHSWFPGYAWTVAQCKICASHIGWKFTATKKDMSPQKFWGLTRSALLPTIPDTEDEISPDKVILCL
UniProt Q86U86, whole entry Y262F, looked up: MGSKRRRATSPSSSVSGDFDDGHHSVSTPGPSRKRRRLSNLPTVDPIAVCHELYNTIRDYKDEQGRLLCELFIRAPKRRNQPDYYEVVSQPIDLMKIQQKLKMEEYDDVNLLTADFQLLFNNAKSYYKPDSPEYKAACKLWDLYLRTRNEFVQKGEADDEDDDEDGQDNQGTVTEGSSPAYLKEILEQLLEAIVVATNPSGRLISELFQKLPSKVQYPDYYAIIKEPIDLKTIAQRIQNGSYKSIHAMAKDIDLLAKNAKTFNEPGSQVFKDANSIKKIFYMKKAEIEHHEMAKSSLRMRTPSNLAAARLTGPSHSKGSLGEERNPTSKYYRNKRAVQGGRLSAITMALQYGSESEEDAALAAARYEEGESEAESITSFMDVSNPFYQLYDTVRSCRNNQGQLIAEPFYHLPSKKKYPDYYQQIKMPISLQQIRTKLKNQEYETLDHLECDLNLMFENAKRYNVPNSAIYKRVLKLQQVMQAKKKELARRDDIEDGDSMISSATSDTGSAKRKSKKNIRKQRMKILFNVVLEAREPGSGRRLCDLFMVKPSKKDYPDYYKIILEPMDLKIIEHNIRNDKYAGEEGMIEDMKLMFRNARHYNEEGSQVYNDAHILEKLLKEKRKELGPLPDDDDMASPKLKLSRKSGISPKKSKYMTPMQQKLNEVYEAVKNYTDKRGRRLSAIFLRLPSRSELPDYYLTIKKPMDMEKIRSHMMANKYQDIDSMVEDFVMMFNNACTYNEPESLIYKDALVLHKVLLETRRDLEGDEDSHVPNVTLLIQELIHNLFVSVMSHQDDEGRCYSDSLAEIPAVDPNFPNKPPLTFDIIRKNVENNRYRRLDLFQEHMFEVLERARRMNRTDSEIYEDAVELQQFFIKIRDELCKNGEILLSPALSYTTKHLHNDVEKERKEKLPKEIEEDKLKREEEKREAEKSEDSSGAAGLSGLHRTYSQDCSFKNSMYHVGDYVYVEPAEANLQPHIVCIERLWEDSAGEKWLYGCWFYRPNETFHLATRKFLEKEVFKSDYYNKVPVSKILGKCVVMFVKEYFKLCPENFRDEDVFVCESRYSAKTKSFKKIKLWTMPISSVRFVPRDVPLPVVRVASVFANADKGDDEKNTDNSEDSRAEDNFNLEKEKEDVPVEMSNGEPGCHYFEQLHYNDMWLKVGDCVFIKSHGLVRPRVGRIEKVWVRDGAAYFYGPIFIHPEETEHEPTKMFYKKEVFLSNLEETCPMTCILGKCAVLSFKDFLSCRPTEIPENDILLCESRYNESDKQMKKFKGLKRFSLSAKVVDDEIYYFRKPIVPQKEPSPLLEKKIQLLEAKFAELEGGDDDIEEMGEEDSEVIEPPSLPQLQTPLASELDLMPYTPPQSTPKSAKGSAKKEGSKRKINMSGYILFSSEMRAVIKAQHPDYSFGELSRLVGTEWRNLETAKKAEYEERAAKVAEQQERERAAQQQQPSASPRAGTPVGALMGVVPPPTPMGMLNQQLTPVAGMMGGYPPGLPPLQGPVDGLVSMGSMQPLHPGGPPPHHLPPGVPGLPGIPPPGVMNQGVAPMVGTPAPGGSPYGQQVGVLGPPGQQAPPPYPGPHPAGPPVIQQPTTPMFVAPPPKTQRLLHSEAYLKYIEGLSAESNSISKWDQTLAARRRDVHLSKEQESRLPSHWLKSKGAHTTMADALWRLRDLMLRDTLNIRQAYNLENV
UniProt Q9UHM6, whole entry: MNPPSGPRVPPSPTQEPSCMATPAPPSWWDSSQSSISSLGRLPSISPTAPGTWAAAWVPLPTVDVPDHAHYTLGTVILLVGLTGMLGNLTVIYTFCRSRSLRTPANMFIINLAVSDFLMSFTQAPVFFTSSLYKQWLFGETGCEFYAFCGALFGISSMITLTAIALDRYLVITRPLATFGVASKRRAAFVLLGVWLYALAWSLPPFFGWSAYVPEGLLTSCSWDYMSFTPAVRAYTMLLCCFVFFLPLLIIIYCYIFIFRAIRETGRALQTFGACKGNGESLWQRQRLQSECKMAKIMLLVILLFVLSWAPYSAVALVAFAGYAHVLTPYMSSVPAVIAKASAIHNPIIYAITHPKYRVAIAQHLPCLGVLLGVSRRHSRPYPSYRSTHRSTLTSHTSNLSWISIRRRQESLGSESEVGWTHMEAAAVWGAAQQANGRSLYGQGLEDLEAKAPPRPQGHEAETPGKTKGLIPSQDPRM
UniProt Q7Z6A9, whole entry, looked up: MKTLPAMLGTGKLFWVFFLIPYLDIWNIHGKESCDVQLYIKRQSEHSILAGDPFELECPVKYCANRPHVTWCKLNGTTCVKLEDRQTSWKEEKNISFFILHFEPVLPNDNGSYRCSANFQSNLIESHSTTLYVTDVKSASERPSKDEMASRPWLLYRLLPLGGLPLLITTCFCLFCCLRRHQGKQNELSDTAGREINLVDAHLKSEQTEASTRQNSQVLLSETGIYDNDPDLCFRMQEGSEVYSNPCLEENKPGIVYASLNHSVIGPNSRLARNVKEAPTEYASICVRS
UniProt Q923Y8, whole entry T268M: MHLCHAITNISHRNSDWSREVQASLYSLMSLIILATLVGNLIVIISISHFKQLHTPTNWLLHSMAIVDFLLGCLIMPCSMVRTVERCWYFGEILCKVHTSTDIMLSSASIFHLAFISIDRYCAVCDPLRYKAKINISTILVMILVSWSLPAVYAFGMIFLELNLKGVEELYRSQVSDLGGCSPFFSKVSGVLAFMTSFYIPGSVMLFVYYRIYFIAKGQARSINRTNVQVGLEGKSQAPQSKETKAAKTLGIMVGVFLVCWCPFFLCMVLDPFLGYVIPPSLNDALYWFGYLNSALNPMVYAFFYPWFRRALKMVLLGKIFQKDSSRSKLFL
UniProt Q07817, whole entry: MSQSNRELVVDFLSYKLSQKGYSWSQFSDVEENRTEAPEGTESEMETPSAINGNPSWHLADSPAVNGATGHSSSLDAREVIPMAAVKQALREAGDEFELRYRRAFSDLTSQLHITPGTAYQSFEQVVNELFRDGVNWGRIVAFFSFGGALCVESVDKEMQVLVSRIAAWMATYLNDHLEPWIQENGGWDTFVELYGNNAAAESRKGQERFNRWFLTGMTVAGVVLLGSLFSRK
UniProt Q16531, whole entry partner: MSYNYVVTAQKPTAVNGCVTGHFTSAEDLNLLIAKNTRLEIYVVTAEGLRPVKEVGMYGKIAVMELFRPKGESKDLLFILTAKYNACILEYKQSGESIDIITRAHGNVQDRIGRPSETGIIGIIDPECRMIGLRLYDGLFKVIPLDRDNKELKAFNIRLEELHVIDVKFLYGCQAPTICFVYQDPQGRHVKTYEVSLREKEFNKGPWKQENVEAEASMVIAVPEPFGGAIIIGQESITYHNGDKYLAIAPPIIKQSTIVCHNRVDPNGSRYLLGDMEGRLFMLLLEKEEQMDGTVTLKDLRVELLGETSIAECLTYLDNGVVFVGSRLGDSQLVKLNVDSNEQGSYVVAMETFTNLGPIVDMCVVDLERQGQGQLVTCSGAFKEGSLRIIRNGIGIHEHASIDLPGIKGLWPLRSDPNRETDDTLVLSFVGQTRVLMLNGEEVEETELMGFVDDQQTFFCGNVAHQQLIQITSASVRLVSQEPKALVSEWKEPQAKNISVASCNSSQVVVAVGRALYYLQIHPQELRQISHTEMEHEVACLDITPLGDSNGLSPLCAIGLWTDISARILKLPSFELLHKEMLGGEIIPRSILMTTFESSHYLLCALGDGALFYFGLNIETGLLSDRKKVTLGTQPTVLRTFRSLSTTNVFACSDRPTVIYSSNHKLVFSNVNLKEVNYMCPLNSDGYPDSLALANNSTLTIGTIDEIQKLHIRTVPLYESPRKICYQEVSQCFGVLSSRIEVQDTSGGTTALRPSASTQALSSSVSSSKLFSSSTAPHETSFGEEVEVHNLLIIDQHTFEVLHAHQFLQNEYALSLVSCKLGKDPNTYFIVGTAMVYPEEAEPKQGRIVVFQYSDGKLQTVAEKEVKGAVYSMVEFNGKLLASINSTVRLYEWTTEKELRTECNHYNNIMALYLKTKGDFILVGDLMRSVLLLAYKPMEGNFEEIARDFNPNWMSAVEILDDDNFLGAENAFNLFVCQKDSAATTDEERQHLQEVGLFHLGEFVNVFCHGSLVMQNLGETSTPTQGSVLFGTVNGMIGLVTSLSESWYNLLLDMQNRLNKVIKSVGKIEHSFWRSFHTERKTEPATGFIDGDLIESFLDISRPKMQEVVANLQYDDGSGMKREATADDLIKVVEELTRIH

SMILES | target | test | test system | setting | quantity | result
CC(C)(C)Nc1c(-c2ccc3c(c2)C(=O)N(C2CCC(=O)NC2=O)C3)nc2ccccn12 (stereo not drawn) | WEE1/CRBN | degrader, HiBiT luciferase | Jurkat (HiBiT-tagged) | 5 h | DC50 | > 10 µM
Cc1cccc(C2NC(=O)c3c(Cl)cccc3N2)c1 (racemic) | Protein polybromo-1, BD2 (PBRM1, Homo sapiens, UniProt Q86U86, Y262F) | ITC |  | mutant | Kd | 17 ± 3 µM
Cc1ccc(C(=O)Nc2cccc(C)c2C(=O)O)cc1S(=O)(=O)Nc1cccc(Cl)c1 | RPA1 N-terminal domain | binding, fluorescence polarisation competition |  | together with: FITC-ATRIP probe | Kd | 134 ± 1 µM
CC(C)(C)CC(C)(C)Nc1c(-c2ccc3c(c2)CN(C2CCC(=O)NC2=O)C3=O)nc2ccccn12 (stereo not drawn) | WEE1/CRBN | degrader, HiBiT luciferase | Jurkat (HiBiT-tagged) | 5 h | DC50 | 0.002 ± 0.0008 µM
COCCN1CCN(S(=O)(=O)c2cc(Cl)ccc2Cl)CC1 | Melanopsin (OPN4, Homo sapiens, UniProt Q9UHM6) | calcium release, antagonist, FLIPR Fluo-4 | CHO cells expressing human OPN4 |  | Kb | 3 µM
CC(C)(C)Nc1c(-c2ccc3c(c2)CN(C2CCC(=O)NC2=O)C3=O)nc2ccccn12 (stereo not drawn) | WEE1/CRBN | degrader, HiBiT luciferase | Jurkat (HiBiT-tagged) | 5 h | DC50 | 0.0031 ± 0.0014 µM
CCc1ccc(NC(=O)c2ccc(C)c(S(=O)(=O)Nc3ccc(Cl)c(Cl)c3)c2)c(C(=O)O)c1 | RPA1 N-terminal domain | binding, fluorescence polarisation competition |  | together with: FITC-ATRIP probe | Kd | 4 ± 0.19 µM
O=c1c2c(-c3ccccc3)csc2ncn1N=Cc1ccc(O)c([N+](=O)[O-])c1 | B- and T-lymphocyte attenuator (BTLA, Homo sapiens, UniProt Q7Z6A9) | binding, microscale thermophoresis |  |  | Kd | 9.02 µM
Cc1cccc2nc(-c3ccc4c(c3)C(=O)N(C3CCC(=O)NC3=O)C4=O)c(NC(C)(C)CC(C)(C)C)n12 (stereo not drawn) | WEE1/CRBN | degrader, HiBiT luciferase | Jurkat (HiBiT-tagged) | 5 h | DC50 | 0.14 ± 0.02 µM
Cc1ccc(C(=O)Nc2cc(F)ccc2C(=O)O)cc1S(=O)(=O)Nc1ccc(Br)cc1 | RPA1 N-terminal domain | binding, fluorescence polarisation competition |  | together with: FITC-ATRIP probe | Kd | 34 ± 3.5 µM
Nc1nc2ccccn2c1C(=O)c1ccc2c(c1)CN(C1CCC(=O)NC1=O)C2=O (stereo not drawn) | WEE1/CRBN | degrader, HiBiT luciferase | Jurkat (HiBiT-tagged) | 5 h | DC50 | 0.091 ± 0.03 µM
Cc1ccc(C(=O)Nc2ccccc2C(=O)O)cc1S(=O)(=O)Nc1ccc2ccccc2c1 | RPA1 N-terminal domain | binding, fluorescence polarisation competition |  | together with: FITC-ATRIP probe | Kd | 83 ± 8 µM
NCC(c1ccc(O)cc1)c1ccc(Oc2ccccc2)cc1 (stereo not drawn) | Trace amine-associated receptor 1 (Taar1, Mus musculus, UniProt Q923Y8, T268M) | cAMP, agonist |  | mouse receptor mutant | EC50 | > 10 µM
Cc1ccc(NS(=O)(=O)c2cc(C(=O)Nc3ccccc3C(=O)O)ccc2C)cc1Cl | RPA1 N-terminal domain | binding, fluorescence polarisation competition |  | together with: FITC-ATRIP probe | Kd | 43 ± 3.5 µM
O=C1CCC(N2Cc3cc(-c4nc5ccccn5c4Nc4ccc5c(c4)OCCO5)ccc3C2=O)C(=O)N1 (stereo not drawn) | WEE1/CRBN | degrader, HiBiT luciferase | Jurkat (HiBiT-tagged) | 5 h | DC50 | 0.028 ± 0.014 µM
Cc1ccc(C(=O)Nc2ccccc2C(=O)O)cc1S(=O)(=O)NC1CCCC1 | RPA1 N-terminal domain | binding, fluorescence polarisation competition |  | together with: FITC-ATRIP probe | Kd | > 250 µM
Cc1ncsc1-c1ccc([C@H](C)NC(=O)[C@@H]2C[C@@H](O)CN2C(=O)[C@@H](NC(=O)CCCCCCC(=O)N2CCN(C[C@]3(C)CCC(c4ccc(Cl)cc4)=C(CN4CCN(c5ccc(C(=O)NS(=O)(=O)c6ccc(N[C@H](CCN7CCOCC7)CSc7ccccc7)c(S(=O)(=O)C(F)(F)F)c6)cc5)CC4)C3)CC2)C(C)(C)C)cc1 | Bcl-2-like protein 1 (BCL2L1, Homo sapiens, UniProt Q07817) | protein degradation, degrader, western blot | WI-38 non-senescent |  | DC50 | 0.00481 µM
Cc1c(=O)n(C)c(Nc2ccc(I)cc2F)c2c(=O)n(C3CC3)c(=O)n(-c3cccc(NC(=O)CCOCCOCCNC(=O)CCC4=[N+]5C(=Cc6ccc(-c7ccc[nH]7)n6[B-]5(F)F)C=C4)c3)c12 | Dual specificity mitogen-activated protein kinase kinase 1 (MAP2K1, Homo sapiens, UniProt Q02750) | binding, NanoBRET | HEK-293T | wild-type MEK1-NanoLuc | EC50 | 0.0099 ± 0.0004 µM

A few entries again:
SMILES | target | test | test system | setting | quantity | result
CC(C)(C)CC(C)(C)Nc1c(-c2ccc3c(c2)CN(C2CCC(=O)NC2=O)C3=O)nc2ccccn12 (stereo not drawn) | WEE1/CRBN | degrader, HiBiT luciferase | Jurkat (HiBiT-tagged) | 5 h | DC50 | 0.002 ± 0.0008 µM
COCCN1CCN(S(=O)(=O)c2cc(Cl)ccc2Cl)CC1 | Melanopsin (OPN4, Homo sapiens, UniProt Q9UHM6) | calcium release, antagonist, FLIPR Fluo-4 | CHO cells expressing human OPN4 |  | Kb | 3 µM
